Measured values of several laboratories.
Numbered parts are unrelated; each lists some results of a single study.

Sample 1 — technique: competition protein-binding microarray; molecule type: double-stranded DNA, one strand shown; medium: in vitro; tested at: 2 µM; with: Cbf1 competitor, 0.05 µM; reading: higher = stronger binding
Target: Phosphate system positive regulatory protein PHO4, full length, GST-tagged (PHO4, Saccharomyces cerevisiae, UniProt P07270, residues 1-312)
UniProt P07270, sequence (whole entry, looked up): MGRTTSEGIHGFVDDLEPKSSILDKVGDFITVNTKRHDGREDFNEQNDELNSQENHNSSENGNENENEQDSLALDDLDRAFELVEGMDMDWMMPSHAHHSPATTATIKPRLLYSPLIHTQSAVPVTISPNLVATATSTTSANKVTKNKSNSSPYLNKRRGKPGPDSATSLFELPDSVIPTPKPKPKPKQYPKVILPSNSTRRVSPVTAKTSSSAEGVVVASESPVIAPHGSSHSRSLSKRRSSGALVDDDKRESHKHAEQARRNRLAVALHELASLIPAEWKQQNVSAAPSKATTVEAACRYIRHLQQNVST
Notes: whole 60-bp probe, lowest competitor level
Oligonucleotide	fluorescence intensity [a.u.]
AAATTACTAAGTTGAGGCGTGGGTGACGCCGTATGAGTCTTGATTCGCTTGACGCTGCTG	7740
CTACCATTATGCAAAAGCGTGCTAAGAAGAACGAAAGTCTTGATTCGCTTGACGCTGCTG	10400
AAATATCTAAGCCATCACATGACAGCAAGACCCTTTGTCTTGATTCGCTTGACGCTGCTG	6240
CGGGGTTAAGTTTTTCACGTGCTCTGCTTGCAGCAGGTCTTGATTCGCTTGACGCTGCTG	13300
GCGTTTGCATAATCGCACGTCTTTCCATCGAATTAAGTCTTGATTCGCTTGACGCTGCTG	7490
CTTCTGTAAATTTGTCACTGCACTTGACGCGCCCCGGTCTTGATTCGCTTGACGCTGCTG	3530
TTGTCGCTCGAAGGACACGTGTACTCATAATAACCCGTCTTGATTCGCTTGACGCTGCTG	15400
AGAATGGGCGGTTTGCACGTGAAGGTGATGTCTTGTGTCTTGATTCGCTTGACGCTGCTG	13000

Sample 2 — technique: universal PBM; molecule type: double-stranded DNA, one strand shown; medium: in vitro; tested at: 600 nM; reading: higher = stronger binding
Target: Sal-like protein 4, full length isoform A (SALL4, Homo sapiens, UniProt Q9UJQ4, residues 1-1053)
UniProt Q9UJQ4, sequence (whole entry, looked up): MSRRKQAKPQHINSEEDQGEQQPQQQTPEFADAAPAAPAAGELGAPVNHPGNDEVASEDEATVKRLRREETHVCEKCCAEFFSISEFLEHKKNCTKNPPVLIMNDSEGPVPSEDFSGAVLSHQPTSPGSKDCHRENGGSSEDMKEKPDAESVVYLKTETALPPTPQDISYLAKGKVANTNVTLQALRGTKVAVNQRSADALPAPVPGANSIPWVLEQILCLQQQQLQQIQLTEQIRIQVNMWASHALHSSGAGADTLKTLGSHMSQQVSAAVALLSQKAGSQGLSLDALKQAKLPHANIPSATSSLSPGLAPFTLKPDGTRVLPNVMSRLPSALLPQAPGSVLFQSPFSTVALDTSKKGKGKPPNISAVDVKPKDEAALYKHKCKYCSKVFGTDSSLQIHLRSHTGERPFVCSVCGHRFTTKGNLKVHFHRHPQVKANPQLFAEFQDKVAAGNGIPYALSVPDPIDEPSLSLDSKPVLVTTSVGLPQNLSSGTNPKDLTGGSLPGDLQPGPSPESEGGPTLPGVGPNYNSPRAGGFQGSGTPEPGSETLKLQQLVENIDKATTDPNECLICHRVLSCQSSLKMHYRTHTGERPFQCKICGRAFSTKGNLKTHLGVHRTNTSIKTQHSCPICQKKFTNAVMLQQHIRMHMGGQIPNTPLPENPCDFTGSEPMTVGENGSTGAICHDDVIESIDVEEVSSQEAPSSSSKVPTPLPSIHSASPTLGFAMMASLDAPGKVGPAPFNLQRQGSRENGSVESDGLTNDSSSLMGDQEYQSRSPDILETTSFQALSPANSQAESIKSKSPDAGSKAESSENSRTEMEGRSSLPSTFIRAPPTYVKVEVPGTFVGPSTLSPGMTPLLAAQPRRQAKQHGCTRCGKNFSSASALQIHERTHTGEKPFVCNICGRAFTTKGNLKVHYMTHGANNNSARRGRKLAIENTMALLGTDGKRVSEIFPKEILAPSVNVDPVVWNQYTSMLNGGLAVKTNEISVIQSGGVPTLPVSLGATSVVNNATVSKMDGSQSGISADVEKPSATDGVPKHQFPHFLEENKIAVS
Notes: 8-mer, flanks averaged, mean of replicates
Oligonucleotide	E-score
GATTTTCA	0.282
TCAGCTCA	-0.116
ATCAGTAG	0.032
CTTTCGTA	0.12
CTGCGCTA	-0.174
CTGTCCAC	-0.144
ACTATTAA	0.341
AAGACCTC	-0.143
CTGACAGC	-0.252
ACCTGTCC	-0.133
ACTAGGAT	0.0572
AGTCGTAG	0.0679
ACTTCCAA	0.0409

Sample 3 — technique: protein binding microarray; molecule type: double-stranded DNA, one strand shown; medium: in vitro; tested at: not given; baseline: not given; reading: higher = stronger binding
Target: Histone acetyltransferase KAT6A, winged helix 2, GST fusion (KAT6A, Homo sapiens, UniProt Q92794, residues 85-181)
Notes: 8-mer, flanks averaged, mean of 2 arrays, mostly near background
Construct (chain): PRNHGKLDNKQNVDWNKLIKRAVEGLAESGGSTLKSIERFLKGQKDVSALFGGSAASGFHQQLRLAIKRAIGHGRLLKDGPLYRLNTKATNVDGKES
Oligonucleotide	E-score
GTCTAGCA	0.0105
ACCTTCGC	0.083
ACAGGGAT	-0.0158
CTTTTGTA	-0.00658
AACGAAAA	-0.0603
ATTCTTTA	0.108
AAGTTAGA	-0.0597
ATCCGTTG	-0.0193
AAAGCAAG	0.111

Single results of other studies
Molecule	target	assay	system	setting	scale	measurement	result
PhoQ, residues 284 288 289 292 302 303 GNNTDL	PhoP, residues 12 14 15 18 19 GHCSL (Escherichia coli, UniProt P23836)	Sort-seq, item: YFP reporter	E. coli	PhoQ-PhoP variant library, with: 10 µM Mg2+	baseline: high Mg2+ state, higher = stronger signaling	fold induction	4.47

For quick reference, copied from above (sample 3):
Oligonucleotide	E-score
CTTTTGTA	-0.00658
AACGAAAA	-0.0603
ATTCTTTA	0.108
AAGTTAGA	-0.0597
ATCCGTTG	-0.0193
